Published values of several laboratories.
Each line is one published result; not all experiments were run side by side. ± marks the error that the study gave.

Compound | test | test system | conditions | Cmax
CC(C)n1c(Nc2cccnc2)nc2cnc(Nc3ccc(N4CCN(C)CC4)cc3)nc21 |  | human, male, plasma | oral, 150 mg, day 15, together with: rifampin 600 mg daily | 74.5 ng/mL
C=CC(=O)N(C)CCOc1c(N)ncnc1-c1cc(F)cc(NC(=O)c2ccc(C3CC3)cc2F)c1C |  | human, whole blood | oral, 5 mg, single ascending dose, fasted | 5.86 ng/mL
Cc1cn(C(=O)c2c(-c3c(Cl)cc(Cl)cc3Cl)noc2C(C)(C)F)c2cccc(/C=C/C(=O)O)c12 |  | human patients | 250 mg bid, cycle 8 day 1 | 24900 ng/mL
COc1nnc2ccc(N3CCC(c4ccc(OCCN5CCN(C)C(=O)[C@H]5C)cc4)CC3)nn12 |  | human, plasma | oral, 40 mg once daily, multiple dose, monotherapy | 216 nM
C[C@H](CCC(=O)O)[C@H]1CC[C@H]2[C@@H]3CC[C@@H]4C[C@H](OS(=O)(=O)O)CC[C@]4(C)[C@H]3CC[C@]12C |  | human, plasma | concentration not given, endogenous control diurnal | 351 ± 42 nM
COc1ncnn2ccc(-c3cnc4nc(C)n(Cc5nnc([C@@H](C)F)o5)c4c3)c12 | LC-MS/MS | human, plasma | oral, 70 mg capsule | 714 ng/mL
CN1CCC(COc2cnc(-c3cccc(Cn4nc(-c5cccc(C#N)c5)ccc4=O)c3)nc2)CC1 |  | human | dose not given, single dose, geometric mean, together with: itraconazole 200 mg once daily | 313 ng/mL
N#CCC1CCN(c2nc(Nc3ccc(N4CCC(O)CC4)cc3)c3c(=O)[nH]ncc3n2)CC1 |  | human, plasma | oral, 80 mg once daily, day 1 | 186 ng/mL
COCCc1ccc(OCC(O)CNC(C)C)cc1 (centres unmarked) | refers to: sum of R and S enantiomers | human, plasma | oral, 100 mg single dose | 30.6 ng/mL
COc1ccc2nc([S@@+]([O-])Cc3ncc(C)c(OC)c3C)[nH]c2c1 |  | human male, dried plasma spots | oral, 5 mg racemic omeprazole | 127 nM
C[C@H]1CN(C(=O)CC#N)[C@]12CCN(c1ncnc3[nH]ccc13)C2 |  | healthy human, plasma | oral, 3 mg single, mean | 19.9 ng/mL
CCn1cc(C(=O)N2CCOCC2)c(=O)c2cc(NC3Cc4ccccc4C3)cnc21 |  | human, fasted | oral suspension, 150 mg single dose, arithmetic mean | 294 ng/mL
Cc1cc(OCCOCCC(F)(F)P(=O)(O)O)ccc1CCc1cnc2c(N)nc3cc(CCC(=O)O)ccc3c2c1 |  | human, serum | intratumoral, 200 µg every 2 weeks, cycle 1 day 1 | 2 ng/mL
O=C(Nc1cnccc1Cl)N1CCN(Cc2ccc3c(c2)OC(F)(F)O3)CC1 |  | human healthy young women, plasma | oral, 100 mg once daily, day 1, multiple dose mean | 972 ng/mL
C#C[C@]1(CO)O[C@@H](n2cnc3c(N)nc(F)nc32)C[C@@H]1O |  | human, plasma | oral, 15 mg, single dose, geometric mean | 385 nM
CC(C)NC(=O)COc1cccc(-c2nc(Nc3ccc4[nH]ncc4c3)c3ccccc3n2)c1 |  | human male, plasma | oral, 200 mg, day 5, fed, alone, geometric mean | 1710 ng/mL
Cc1ccc(C(=O)N(CCCN)C(c2nc3snc(C)c3c(=O)n2Cc2ccccc2)C(C)C)cc1 (centres unmarked) |  | human patients, plasma | intravenous, 18 mg/day, day 3 of induction course, geometric mean | 200 ng/mL
NC[C@@]1(CC(=O)O)[C@@H]2CC[C@H]3C[C@@H]2[C@@H]1C3 |  | human, severely renal impairment, plasma | geometric least squares mean | 438 ng/mL
CC(C)(C)[C@@H]1NC(=O)O[C@@H]2CCC[C@H]2OC/C=C/C(F)(F)c2nc3ccccc3nc2O[C@@H]2C[C@@H](C(=O)N[C@]3(C(=O)NS(=O)(=O)C4(C)CC4)C[C@H]3C(F)F)N(C2)C1=O |  | healthy human subjects, plasma | oral, dose not given, single dose alone | 1130 ng/mL
CC(C)(Sc1ccncc1-c1ccc(C#N)c2ccccc12)C(=O)O |  | human, plasma | oral, 2.5 mg once daily, together with: febuxostat 10 mg | 6.25 ng/mL

Excerpt of the above:
Compound | test | test system | conditions | Cmax
COc1nnc2ccc(N3CCC(c4ccc(OCCN5CCN(C)C(=O)[C@H]5C)cc4)CC3)nn12 |  | human, plasma | oral, 40 mg once daily, multiple dose, monotherapy | 216 nM
C[C@H](CCC(=O)O)[C@H]1CC[C@H]2[C@@H]3CC[C@@H]4C[C@H](OS(=O)(=O)O)CC[C@]4(C)[C@H]3CC[C@]12C |  | human, plasma | concentration not given, endogenous control diurnal | 351 ± 42 nM
